# Results gathered from unrelated publications.
# Numbered parts are unrelated; each lists some results of a single study.

# Study 1 — technique: universal PBM; form: double-stranded DNA, one strand shown; medium: in vitro; concentration: 600 nM; reading: higher = stronger binding
# Target: Sal-like protein 4, full length isoform A (SALL4, Homo sapiens, UniProt Q9UJQ4, residues 1-1053)
# Chain of UniProt Q9UJQ4 (whole entry, looked up): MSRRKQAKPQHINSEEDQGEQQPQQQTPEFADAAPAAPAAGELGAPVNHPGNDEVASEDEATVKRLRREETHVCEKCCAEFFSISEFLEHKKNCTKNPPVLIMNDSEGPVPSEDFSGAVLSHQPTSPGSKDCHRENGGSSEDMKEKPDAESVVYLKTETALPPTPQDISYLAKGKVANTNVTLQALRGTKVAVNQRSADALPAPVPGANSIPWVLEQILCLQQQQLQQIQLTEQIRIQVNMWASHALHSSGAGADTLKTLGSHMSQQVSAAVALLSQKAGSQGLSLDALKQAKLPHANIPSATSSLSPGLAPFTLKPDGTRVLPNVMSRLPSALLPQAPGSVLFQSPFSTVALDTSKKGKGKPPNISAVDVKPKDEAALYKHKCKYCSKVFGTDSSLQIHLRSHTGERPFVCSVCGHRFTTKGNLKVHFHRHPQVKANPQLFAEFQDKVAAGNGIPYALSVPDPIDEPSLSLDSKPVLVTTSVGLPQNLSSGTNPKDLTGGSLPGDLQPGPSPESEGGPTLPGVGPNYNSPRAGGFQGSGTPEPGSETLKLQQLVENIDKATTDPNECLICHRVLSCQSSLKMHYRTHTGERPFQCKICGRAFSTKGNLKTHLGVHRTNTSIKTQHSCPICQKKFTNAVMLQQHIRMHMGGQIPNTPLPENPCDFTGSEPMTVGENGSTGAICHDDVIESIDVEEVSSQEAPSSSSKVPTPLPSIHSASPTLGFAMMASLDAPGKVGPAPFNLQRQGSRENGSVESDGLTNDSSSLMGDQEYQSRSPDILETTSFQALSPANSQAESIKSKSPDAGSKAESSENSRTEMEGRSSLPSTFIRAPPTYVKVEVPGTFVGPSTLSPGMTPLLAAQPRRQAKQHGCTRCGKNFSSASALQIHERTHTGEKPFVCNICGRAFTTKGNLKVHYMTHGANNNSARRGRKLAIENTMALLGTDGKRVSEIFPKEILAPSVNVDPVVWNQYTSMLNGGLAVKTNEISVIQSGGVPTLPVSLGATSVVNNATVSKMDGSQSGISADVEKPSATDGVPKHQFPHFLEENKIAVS
# Setting: 8-mer, flanks averaged, mean of replicates
Strand,E-score
TTGTTAAA,0.293
GCTACCGA,-0.0885
CCGTTACG,-0.0973
AGATCGAT,0.0612
AATGAGTA,0.324
TCGGGGAA,-0.074
GGCTGTAA,-0.027
GTTCGTGA,-0.235
ACTCCCCA,0.0602
ACCTCACC,-0.143
GGCGAAAC,-0.0969
GCCCTAAA,-0.193
CCCTTTTC,-0.0959
CCACTCGG,-0.255
CTACGCCC,-0.226
ACGCGTAT,0.109
AAGGAACT,0.0313
AGGGCTTG,-0.126
CAAGTTCC,-0.1
ACATAGTC,0.173
AACACAAT,0.254
GTGCTCCA,-0.202
AGTCAGAA,0.0199
CGTGACTC,-0.178
CAACGTGA,-0.0959

# Study 2 — technique: competition protein-binding microarray; form: double-stranded DNA, one strand shown; medium: in vitro; concentration: 2 µM; together with: Pho4 competitor, 0.05 µM; reading: higher = stronger binding; all sequences stand within: … GTCTTGATTCGCTTGACGCTGCTG
# Target: Centromere-binding protein 1, full length, His-tagged (CBF1, Saccharomyces cerevisiae, UniProt P17106, residues 1-351)
# Chain of UniProt P17106 (whole entry, looked up): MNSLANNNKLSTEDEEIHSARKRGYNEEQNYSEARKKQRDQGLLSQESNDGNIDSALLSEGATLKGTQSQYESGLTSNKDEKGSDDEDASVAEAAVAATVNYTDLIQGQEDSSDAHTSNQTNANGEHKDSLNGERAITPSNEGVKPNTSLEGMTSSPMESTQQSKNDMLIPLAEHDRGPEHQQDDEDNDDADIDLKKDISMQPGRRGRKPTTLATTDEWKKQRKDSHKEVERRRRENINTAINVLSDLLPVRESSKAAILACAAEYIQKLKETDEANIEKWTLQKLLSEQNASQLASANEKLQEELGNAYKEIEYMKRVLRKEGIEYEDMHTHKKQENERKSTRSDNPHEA
# Setting: whole 60-bp probe, lowest competitor level
Strand,fluorescence intensity [a.u.]
CGCTGCCGTTCATGATACGTGTCCTCAGGACGTCTG,44.9
CGCCATTACGACAATCACATGGTTGTTAAATCGCGG,882
CCCAATCTGAGAGAGAACGTGCCGAGGCCGCCTTCA,77.8
GAAGTAAGTTTTCCGCACGTAAAACTACTACAACAA,78.3
GTTAAAACTCAATTATGCGTGGGACTTCTCAATTAG,81.9
CATACCCAACCTTGACAGGTGGGTGAAGATATTTGT,66.3
CAACGAGCTCTTTGCCACGTATCAACTGGAGAAGAG,70.5
CGGGGTTAAGTTTGTGAAGTGGGTGGCTTGCAGCAG,80.1
AAATTACTAAGTTGCTCGGTGGGTGACGCCGTATGA,59.4
ACAGCGTCGGCGGGCCACGTGCGGGAGGAGGGGCCG,731
TCCTTGTCAACGCCGTGCGTGACGGTATGATTCACA,84.1
GTCCGAAAGGACAATCACATGCAGAGGTTCAAAGTA,329
AATCCTATTAAATTGCGCGTGGGAGTTTAAATGGGT,109
CTTTCCCGATCTTGGACGGTGGGTGTAGCACATTTG,67.1
TCATAGAGACTTCCACGCGTGGCAAGGTGATTGGCC,75.7
GTCCCACCAGATTTGCACGTTTTGTTACCCCAGATA,142
CCGGAATACCGAAAGCACGGGCCAGACCGAAATCGA,80.6
GTCTTGTCTCATTGCACCGTGGGTGTCCCCACTTCA,81.2
TGCGCAACAACTTGAGTAGTGGGTGTATGTCTAGAA,62

# Study 3 — technique: RNA Bind-n-Seq; form: RNA; medium: in vitro; concentration: not given; baseline: input RNA pool; reading: higher = stronger binding
# Target: RING finger protein unkempt homolog, zinc fingers 1-6, GST-SBP tag (UNK, Homo sapiens, UniProt Q9C0B0, residues 30-357)
# Chain of UniProt Q9C0B0 (30-357, looked up): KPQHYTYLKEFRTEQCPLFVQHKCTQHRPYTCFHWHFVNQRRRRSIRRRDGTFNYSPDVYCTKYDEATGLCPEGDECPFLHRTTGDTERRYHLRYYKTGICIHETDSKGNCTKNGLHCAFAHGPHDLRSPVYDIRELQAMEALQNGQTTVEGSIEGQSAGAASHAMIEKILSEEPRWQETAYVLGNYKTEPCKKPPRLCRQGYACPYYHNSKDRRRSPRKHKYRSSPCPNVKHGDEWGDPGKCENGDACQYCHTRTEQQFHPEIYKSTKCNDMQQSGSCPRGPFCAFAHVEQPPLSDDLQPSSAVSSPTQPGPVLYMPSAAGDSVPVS
# Setting: RNA with constant flanks, human and mouse sites, ends assumed
# All sequences stand within: GGGAGUUCUACAGUCCGACGAUC … CAACAGAGGAUUGAGCAUCA
Strand,bound/input enrichment [ratio]
GAUUUUGAUUAUACAACCAUGCAUAGGAUUAAACUGAAUGAUCGAAUGACAUUUCCCGAGGAACUAGAUAUGAGUACUUUUAUUGAUGUUGAAGAUGAGAAAUCUCCUCAGACUGAAAGU,2.71
ACAAAAAAAAUCAAAAAUUAAAAAAAAUCAAUGCGGUCUCUUUGCAGAAUGUUUUGCUUGAUGUUUAAAAAAUACCUUGGAUCUUAUUUUGUAAAUACUUACAUUUUUGUUAAAAAAUAC,0.414
CUGGAUCAGUAUGGCCAAUGUGUGGCAGCCAAGCCAGAGUCGUGGCAUCGAGAUUGUCACCACCUUAAGAUGAGCAUUGCUCGCUGCACGUCCUCCCACCCGAUCAUCCGCCAGAUCCGC,0.0713
GUCCCAAACAUCUCUGUCCACCUGCGACACGAGCCCCCUGCUCUAAUGAAUGAGAUGUACUGUUUGGUUGUCACUGUUCAGUCCCACGAGAAGUCCCCAAUCAGGGAUGUGAAGCUCACU,0.084
AUUAAUGAGGGCCUUAAAGCUGCUGACAACGACCCCACGGCGCCACCGUAUGACUCCCUCUUAGUCUUUGACUACGAGGGCAGCGGCUCCACGGCUGGCUCCUUGAGCUCCCUCAACUCC,0.128
UCCACAACAGGUUCCUGACGGAGACUUCGCCCUUCAUGUGGUCCAACCUGGGCAUUGGCCUAGCUAUCUCCCUGUCUGUGGUUGGGGCAGCCUGGGGCAUCUAUAUUACCGGCUCCUCCA,0.0994
GCUGUGGAUCUGCUGACUCAGCUUUCUUCAAUACUAAAAACAUAUGGAAGUUCUUUGAAAACACCGUCAAUAGUUUAUAGACAGAGACUUUAUGAACUACUAAUUUUAUUACCUCCUGAG,0.46
CUCAAAGAAUUGCUUUCUUGGAAAGUUUUGAGCACAGAAGACUAUACAACCUGUUUUUCUAGCAGAAAUUUUCUAAAUGAAGCAGUGGACUAUGUUAUUCGCCACUUGAUUCAAGAAAAU,0.148
CAGCCUGGGGACACAGCCAAGGCUGUGGUGGCACAAGCUGUCCGUCAUCUCCCGCAGUCUGUUAGGAUUUACAUCAGAGCAGCAGAGCUAGAAACAGACAUUCGAGCAAAGAAGCGUGUU,0.268
GAAGAAAGCAAUAAAUUCUAUAAGGACAAUAUUAAGGCUGGUCAGCAGGGGUUGUCUGUUGCCUUUGACUUGGCAACACAUCGUGGUUAUGAUUCAGACAACCCCAGAGUUCGUGGAGAU,0.2
ACUCCGAGCUCCUUUGAUACCCACUUCCAAAGUCCUUCCAGUAGUGUGGGCUCCCCUCCUGUGCUGUAUAUACCAGGCCAGUCUCCACUCCUCACAAGGAUCUAUGAUUGAGCUGCGCAA,0.228

# Study 4 — technique: RNA Bind-n-Seq; form: RNA; medium: in vitro; concentration: 200 nM; setting: whole 134-nt RNA, ends assumed; together with: 150 mM KCl; baseline: input library; reading: higher = stronger binding
# Target: Ras GTPase-activating protein-binding protein 1, full length (G3BP1, Homo sapiens, UniProt Q13283)
# Chain of UniProt Q13283 (whole entry, looked up): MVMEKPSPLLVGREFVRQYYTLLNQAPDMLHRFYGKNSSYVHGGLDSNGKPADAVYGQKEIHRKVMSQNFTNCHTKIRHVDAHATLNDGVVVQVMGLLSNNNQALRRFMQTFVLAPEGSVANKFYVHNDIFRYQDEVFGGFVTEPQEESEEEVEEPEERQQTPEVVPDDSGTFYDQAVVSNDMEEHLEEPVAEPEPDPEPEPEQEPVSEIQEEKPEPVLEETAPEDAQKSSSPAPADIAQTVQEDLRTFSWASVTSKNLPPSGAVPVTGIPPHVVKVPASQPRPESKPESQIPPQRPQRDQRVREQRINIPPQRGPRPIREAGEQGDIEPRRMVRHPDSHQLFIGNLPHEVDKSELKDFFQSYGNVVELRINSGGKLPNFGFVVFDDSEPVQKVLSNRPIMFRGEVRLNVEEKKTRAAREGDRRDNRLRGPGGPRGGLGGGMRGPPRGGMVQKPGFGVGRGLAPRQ
# All sequences stand within: GGGAGUUCUACAGUCCGACGAUC … UGGAAUUCUCGGGUGUCAAGG
Strand,log2 enrichment
UCAAGUCCUGUGCUACACAUCGUAUGUACCGAAUCGGUUUGGGGUUUGGUUUGGGAAAGUAUUAUGUUACGCCGUUCGGAUCUGCACUUC,-0.54
CCUGUGCUACACAUCGUAUGUACCGAAUCGGGGUUUUUUUGGGGAAAGGGGUUUUUGGGGAAAGUAUUAUGUUACGCCGUUCGGAUCUGC,0.108
AGUCCUGUGCUACACAUCGUAUGUACCGAAUCGGAAAAAGGAAAAAGGUUUUUUUGGAAAGUAUUAUGUUACGCCGUUCGGAUCUGCACU,-1.67
UGGGAGGUGGAUUUUGUUUAUUUUUUGAGCUCAUUUCCAGGGGUGGGAAUUUUUUUUUAAUAUGUGUCAUGAAUAAAGUUGUUUUUGAAA,0.313
UCAAGUCCUGUGCUACACAUCGUAUGUACCGAAUCGGGAAAGGGUUUGGGUGGGAAAGUAUUAUGUUACGCCGUUCGGAUCUGCACUUCC,1.11
CUGUGCUACACAUCGUAUGUACCGAAUCGGGGUUUUUUUGGUUUUUUUGGGGUUUUUUUGGAAAGUAUUAUGUUACGCCGUUCGGAUCUG,-0.809
AGUCCUGUGCUACACAUCGUAUGUACCGAAUCGGGGUGGGGUGGGGAAAAAAAGGGGAAAGUAUUAUGUUACGCCGUUCGGAUCUGCACU,0.388
AGUCCUGUGCUACACAUCGUAUGUACCGAAUCGGGGUUUUUUUGGGGUGGGGUGGGGAAAGUAUUAUGUUACGCCGUUCGGAUCUGCACU,0.817
UCCUCCCUGGCUUCAGCCAGUCCCUGACGCUGAGCACUGGCUUCCGAGUCAUCAAGAAGAAGCUGUACAGCUCGGAACAGCUGCUCAUUG,-1.05
AGGCUAUGGAGGCUAUGAUGAUUACAAUGGCUAUAAUGAUGGCUAUGGAUUUGGGUCAGAUAGAUUUGGAAGAGGUAAGGUAAGAAUUGA,0.447
UCCUGUGCUACACAUCGUAUGUACCGAAUCGGGGAAAAAGGGGAAAGGGGUUUUUGGGGAAAGUAUUAUGUUACGCCGUUCGGAUCUGCA,0.764
CACAGACAACACGCACCCACACAGACACAGAGGGAAGGGGUUGGGAUGGGGACAGGGUGCACAGCAGCGCGGGGUAGGACCCCAGCCCCU,1.94
AGUCCUGUGCUACACAUCGUAUGUACCGAAUCGGGGAGGGGAAAAAAAGGGGAGGGGAAAGUAUUAUGUUACGCCGUUCGGAUCUGCACU,0.673
GCAGGAAGUAAAAACAAAUGGAAAUGCUUCGGAUAGUGGCAGGGGUGGGGGUUGCUAACGAAAGGGUGGGAUGGGAGUGGGUAAAGAGUU,0.747

# Study 5 — technique: protein binding microarray; form: double-stranded DNA, one strand shown; medium: in vitro; concentration: not given; baseline: not given; reading: higher = stronger binding
# Target: Histone acetyltransferase KAT6A, winged helix 2, GST fusion (KAT6A, Homo sapiens, UniProt Q92794, residues 85-181)
# Setting: 8-mer, flanks averaged, mean of 2 arrays, mostly near background
# Construct (chain): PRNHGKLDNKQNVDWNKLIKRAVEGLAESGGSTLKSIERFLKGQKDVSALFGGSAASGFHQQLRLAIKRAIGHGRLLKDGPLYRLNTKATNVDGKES
Strand,E-score
GGGCGCAA,0.258
AAGACCGA,-0.0576
CATGTGGG,-0.134
TACGAATA,-0.00565
ACATAATG,-0.0367
ACTCCTCG,-0.0522
CTCTATAC,-0.0758
CGGAGCTA,-0.0295
GAAATGTC,-0.043
ACAACCAG,0.213
TCGTGAGA,0.0493
GTGGGGCA,0.104
GGGGCCAA,-0.0799
ATATTGCA,-0.156
CGGCCTTC,0.172
AGTGCAGG,0.139
AGCGCAGC,0.202
GAGGGCTA,-0.0518
GAGAAATA,0.0669

# Excerpt of the above (study 2):
Strand,fluorescence intensity [a.u.]
GAAGTAAGTTTTCCGCACGTAAAACTACTACAACAA,78.3
GTTAAAACTCAATTATGCGTGGGACTTCTCAATTAG,81.9
CATACCCAACCTTGACAGGTGGGTGAAGATATTTGT,66.3
CAACGAGCTCTTTGCCACGTATCAACTGGAGAAGAG,70.5
CGGGGTTAAGTTTGTGAAGTGGGTGGCTTGCAGCAG,80.1
AAATTACTAAGTTGCTCGGTGGGTGACGCCGTATGA,59.4
ACAGCGTCGGCGGGCCACGTGCGGGAGGAGGGGCCG,731
TCCTTGTCAACGCCGTGCGTGACGGTATGATTCACA,84.1
GTCCGAAAGGACAATCACATGCAGAGGTTCAAAGTA,329
AATCCTATTAAATTGCGCGTGGGAGTTTAAATGGGT,109
CTTTCCCGATCTTGGACGGTGGGTGTAGCACATTTG,67.1
TCATAGAGACTTCCACGCGTGGCAAGGTGATTGGCC,75.7
GTCCCACCAGATTTGCACGTTTTGTTACCCCAGATA,142
CCGGAATACCGAAAGCACGGGCCAGACCGAAATCGA,80.6
